Published values gathered from unrelated publications.
Each line is one published result; not all experiments were run side by side. ± gives the spread as reported.

CN[C@H](CC(C)C)C(=O)N[C@H]1C(=O)N[C@@H](CC(N)=O)C(=O)N[C@H]2C(=O)N[C@H]3C(=O)N[C@H](C(=O)N[C@H](C(=O)O)c4cc(O)cc(O)c4-c4cc3ccc4O)[C@H](O)c3ccc(c(Cl)c3)Oc3cc2cc(c3O[C@@H]2O[C@H](CO)[C@@H](O)[C@H](O)[C@H]2O[C@H]2C[C@](C)(N)[C@H](O)[C@H](C)O2)Oc2ccc(cc2Cl)[C@H]1O  Tmax (C57BL/6N mouse H1, faeces; po, 0.5 mL, 20 mg/mL solution): 36 h
Cc1cc(N[C@H]2CCc3ccc(Cl)cc3C2)n2nc(C(C)(F)F)nc2n1  Tmax (NSG mouse, whole blood; oral, 30 mg/kg): 4 h
COc1cc(C)[nH]c(=O)c1CN1CCc2c(Cl)cc([C@H](OC)C3COC3)c(Cl)c2C1=O  Tmax (female CB17 SCID mouse, HT-1376 xenograft, plasma; 75 mg/kg, day 1): 0.5 h
O=C(O)C[C@H](O)C[C@H](O)/C=C/c1c(C2CC2)nc2ccccc2c1-c1ccc(F)cc1  Tmax (FVB wild-type mouse, plasma; oral, 5 mg/kg, added: silymarin 500 mg/kg oral): 0.5 h
O=c1c2cc(Cl)c(CO)cc2[nH]c(=S)n1Cc1cccnc1  Tmax (mouse, plasma; oral, 50 mg/kg): 0.25 h
Cc1cc(NC2Cc3cc(F)c(F)cc3C2)n2nc(C(C)(F)F)nc2n1  Tmax (NSG mouse, whole blood; oral, 30 mg/kg): 2 h
Cc1c(C(=O)O)ccc2c3n(nc12)[C@@H]1[C@H](C3)N(CC2CC2)[C@@]2(C(=O)Nc3cc(Cl)ccc32)[C@H]1c1cccc(Cl)c1F  Tmax (female BALB/c nude mouse, SJSA-1 xenograft, plasma; oral, 1 mg/kg twice daily, 2 doses): 9 h
CCn1ncc2c(Nc3ccc(OC(F)(F)F)cc3)ncnc21  Tmax (male BALB/c mouse, plasma; oral, 20 mg/kg): 0.5 h
CC[C@H](C)[C@@H]1NC(=O)[C@@](C)(NC(=O)[C@H](CCCNC(=N)N)NC(=O)[C@H](CC(C)C)NC(=O)[C@@H](NC(=O)[C@H](CCC(N)=O)NC(=O)[C@H](CC(C)C)NC(C)=O)[C@@H](C)O)CCCC=CCCC[C@@](C)(C(=O)N[C@@H](CC(C)C)C(=O)N[C@@H](Cc2ccc3ccccc3c2)C(N)=O)NC(=O)[C@H](CCCNC(=N)N)NC(=O)[C@H](CCC(N)=O)NC1=O  Tmax (BALB/c mouse; intraperitoneal, 5 mg/kg): 2 h
CN1CCCC1CCNS(=O)(=O)c1ccc2c(c1)CN(CC1CCCCC1)CC2 (centres unmarked)  Tmax (mouse, brain; oral, 10 mg/kg): 2 h
CCOC(=O)C1=C(CN2CCC[C@@H]2C(=O)Nc2ccc(B(O)O)cc2)NC(c2nccs2)=N[C@H]1c1ccc(F)cc1Br  Tmax (ICR mouse, plasma; oral, 10 mg/kg): 0.33 ± 0.14 h
CN1CCC[C@H](CN2c3ccccc3Sc3ccccc32)C1.Cl  Tmax (ICR mouse female fasted, lung; oral, 16 mg/kg): 1 h
O=C1CCC(N2Cc3cc(CO)c(F)cc3C2=O)C(=O)N1 (centres unmarked)  Tmax (male CD-1 mouse, plasma; oral, 10 mg/kg of parent drug): 1.2 ± 0.7 h
NS(=O)(=O)c1ccc(-c2cc(Nc3ccc(OC(F)(F)F)cc3)ncn2)cc1  Tmax (male BALB/c mouse, plasma; oral, 20 mg/kg): 1 h

Repeated from above:
Cc1cc(NC2Cc3cc(F)c(F)cc3C2)n2nc(C(C)(F)F)nc2n1  Tmax (NSG mouse, whole blood; oral, 30 mg/kg): 2 h
